Measured values of several laboratories.
Each line is one published result; not all experiments were run side by side. ± marks the error that the study gave.
CYP2C9: Cytochrome P450 2C9 (CYP2C9, Homo sapiens, UniProt P11712)
UniProt P11712, sequence (whole entry, looked up): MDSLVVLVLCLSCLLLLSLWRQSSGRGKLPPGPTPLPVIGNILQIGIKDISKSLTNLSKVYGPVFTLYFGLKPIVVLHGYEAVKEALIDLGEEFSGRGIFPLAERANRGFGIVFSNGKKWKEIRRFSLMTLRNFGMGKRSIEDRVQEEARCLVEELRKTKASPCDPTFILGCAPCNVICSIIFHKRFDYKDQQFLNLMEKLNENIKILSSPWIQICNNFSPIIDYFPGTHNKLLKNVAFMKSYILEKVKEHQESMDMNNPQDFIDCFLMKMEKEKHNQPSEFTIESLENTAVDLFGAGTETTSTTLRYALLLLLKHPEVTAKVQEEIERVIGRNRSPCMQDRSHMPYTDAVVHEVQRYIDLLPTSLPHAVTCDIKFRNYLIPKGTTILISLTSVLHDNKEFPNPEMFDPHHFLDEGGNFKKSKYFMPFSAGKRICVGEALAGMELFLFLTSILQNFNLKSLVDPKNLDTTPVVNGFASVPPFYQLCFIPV
UniProt Q95LD9, sequence (whole entry, looked up): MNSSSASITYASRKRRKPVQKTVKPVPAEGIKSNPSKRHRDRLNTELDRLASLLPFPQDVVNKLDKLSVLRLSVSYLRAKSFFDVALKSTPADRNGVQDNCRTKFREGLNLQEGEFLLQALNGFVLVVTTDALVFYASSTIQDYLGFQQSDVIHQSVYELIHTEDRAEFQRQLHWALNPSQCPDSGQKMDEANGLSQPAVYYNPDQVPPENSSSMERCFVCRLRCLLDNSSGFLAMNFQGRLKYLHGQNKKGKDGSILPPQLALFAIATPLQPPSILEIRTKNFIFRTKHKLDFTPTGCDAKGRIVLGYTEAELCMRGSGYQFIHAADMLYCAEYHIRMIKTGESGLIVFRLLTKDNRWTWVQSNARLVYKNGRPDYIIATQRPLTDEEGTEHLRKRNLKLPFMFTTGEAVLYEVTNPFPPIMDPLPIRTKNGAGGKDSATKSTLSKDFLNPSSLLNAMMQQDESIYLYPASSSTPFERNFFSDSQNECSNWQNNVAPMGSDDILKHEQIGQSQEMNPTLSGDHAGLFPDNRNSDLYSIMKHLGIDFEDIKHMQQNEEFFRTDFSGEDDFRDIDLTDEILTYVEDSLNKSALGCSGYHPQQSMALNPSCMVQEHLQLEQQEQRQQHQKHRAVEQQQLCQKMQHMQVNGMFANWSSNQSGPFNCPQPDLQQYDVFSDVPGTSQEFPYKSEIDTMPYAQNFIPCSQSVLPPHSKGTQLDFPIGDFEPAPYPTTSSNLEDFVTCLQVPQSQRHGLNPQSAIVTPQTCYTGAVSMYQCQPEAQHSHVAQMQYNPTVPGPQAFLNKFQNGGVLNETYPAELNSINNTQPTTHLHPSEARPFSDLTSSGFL
UniProt Q9UNQ0, sequence (whole entry, looked up): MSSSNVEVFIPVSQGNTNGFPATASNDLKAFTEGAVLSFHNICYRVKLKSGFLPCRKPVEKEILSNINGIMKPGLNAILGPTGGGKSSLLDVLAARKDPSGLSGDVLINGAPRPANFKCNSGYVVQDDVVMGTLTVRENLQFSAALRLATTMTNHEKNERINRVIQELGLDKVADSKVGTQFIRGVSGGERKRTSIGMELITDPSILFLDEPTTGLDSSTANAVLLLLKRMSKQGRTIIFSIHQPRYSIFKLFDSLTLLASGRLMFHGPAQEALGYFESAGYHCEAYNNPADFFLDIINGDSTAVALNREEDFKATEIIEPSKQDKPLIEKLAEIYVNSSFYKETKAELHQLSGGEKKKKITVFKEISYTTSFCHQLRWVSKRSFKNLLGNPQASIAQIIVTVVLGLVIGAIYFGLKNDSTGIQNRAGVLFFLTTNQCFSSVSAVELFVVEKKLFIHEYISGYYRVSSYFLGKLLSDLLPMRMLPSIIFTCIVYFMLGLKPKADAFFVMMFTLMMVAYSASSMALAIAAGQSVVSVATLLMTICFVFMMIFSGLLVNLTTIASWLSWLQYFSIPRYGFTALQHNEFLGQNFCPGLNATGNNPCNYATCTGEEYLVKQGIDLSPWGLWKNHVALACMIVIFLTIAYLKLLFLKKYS
UniProt O75469, sequence (whole entry, looked up): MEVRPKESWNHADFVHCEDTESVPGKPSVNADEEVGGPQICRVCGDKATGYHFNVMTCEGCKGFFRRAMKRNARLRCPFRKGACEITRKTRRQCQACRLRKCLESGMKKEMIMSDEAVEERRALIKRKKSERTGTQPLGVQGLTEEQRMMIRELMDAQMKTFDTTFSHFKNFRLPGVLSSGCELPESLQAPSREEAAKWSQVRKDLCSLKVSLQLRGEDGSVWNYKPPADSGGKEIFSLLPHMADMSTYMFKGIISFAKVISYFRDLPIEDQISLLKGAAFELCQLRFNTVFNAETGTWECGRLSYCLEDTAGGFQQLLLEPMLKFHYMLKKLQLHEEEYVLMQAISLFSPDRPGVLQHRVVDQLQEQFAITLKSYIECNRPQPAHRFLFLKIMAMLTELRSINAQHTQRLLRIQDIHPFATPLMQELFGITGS
UniProt Q16696, sequence (whole entry, looked up): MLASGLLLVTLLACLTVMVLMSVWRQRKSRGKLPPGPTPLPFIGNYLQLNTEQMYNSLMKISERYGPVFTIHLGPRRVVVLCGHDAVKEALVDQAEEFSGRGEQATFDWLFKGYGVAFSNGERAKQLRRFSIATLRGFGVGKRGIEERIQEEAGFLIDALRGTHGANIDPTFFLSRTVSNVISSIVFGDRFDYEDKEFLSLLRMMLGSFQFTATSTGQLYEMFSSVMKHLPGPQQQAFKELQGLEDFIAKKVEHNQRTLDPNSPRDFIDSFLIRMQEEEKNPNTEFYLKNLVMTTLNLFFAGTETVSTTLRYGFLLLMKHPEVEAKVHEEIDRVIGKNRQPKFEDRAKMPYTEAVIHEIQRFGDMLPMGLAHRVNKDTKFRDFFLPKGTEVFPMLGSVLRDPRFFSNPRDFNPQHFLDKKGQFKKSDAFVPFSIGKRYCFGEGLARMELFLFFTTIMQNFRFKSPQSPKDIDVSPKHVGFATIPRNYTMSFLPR
UniProt P08183, sequence (whole entry, looked up): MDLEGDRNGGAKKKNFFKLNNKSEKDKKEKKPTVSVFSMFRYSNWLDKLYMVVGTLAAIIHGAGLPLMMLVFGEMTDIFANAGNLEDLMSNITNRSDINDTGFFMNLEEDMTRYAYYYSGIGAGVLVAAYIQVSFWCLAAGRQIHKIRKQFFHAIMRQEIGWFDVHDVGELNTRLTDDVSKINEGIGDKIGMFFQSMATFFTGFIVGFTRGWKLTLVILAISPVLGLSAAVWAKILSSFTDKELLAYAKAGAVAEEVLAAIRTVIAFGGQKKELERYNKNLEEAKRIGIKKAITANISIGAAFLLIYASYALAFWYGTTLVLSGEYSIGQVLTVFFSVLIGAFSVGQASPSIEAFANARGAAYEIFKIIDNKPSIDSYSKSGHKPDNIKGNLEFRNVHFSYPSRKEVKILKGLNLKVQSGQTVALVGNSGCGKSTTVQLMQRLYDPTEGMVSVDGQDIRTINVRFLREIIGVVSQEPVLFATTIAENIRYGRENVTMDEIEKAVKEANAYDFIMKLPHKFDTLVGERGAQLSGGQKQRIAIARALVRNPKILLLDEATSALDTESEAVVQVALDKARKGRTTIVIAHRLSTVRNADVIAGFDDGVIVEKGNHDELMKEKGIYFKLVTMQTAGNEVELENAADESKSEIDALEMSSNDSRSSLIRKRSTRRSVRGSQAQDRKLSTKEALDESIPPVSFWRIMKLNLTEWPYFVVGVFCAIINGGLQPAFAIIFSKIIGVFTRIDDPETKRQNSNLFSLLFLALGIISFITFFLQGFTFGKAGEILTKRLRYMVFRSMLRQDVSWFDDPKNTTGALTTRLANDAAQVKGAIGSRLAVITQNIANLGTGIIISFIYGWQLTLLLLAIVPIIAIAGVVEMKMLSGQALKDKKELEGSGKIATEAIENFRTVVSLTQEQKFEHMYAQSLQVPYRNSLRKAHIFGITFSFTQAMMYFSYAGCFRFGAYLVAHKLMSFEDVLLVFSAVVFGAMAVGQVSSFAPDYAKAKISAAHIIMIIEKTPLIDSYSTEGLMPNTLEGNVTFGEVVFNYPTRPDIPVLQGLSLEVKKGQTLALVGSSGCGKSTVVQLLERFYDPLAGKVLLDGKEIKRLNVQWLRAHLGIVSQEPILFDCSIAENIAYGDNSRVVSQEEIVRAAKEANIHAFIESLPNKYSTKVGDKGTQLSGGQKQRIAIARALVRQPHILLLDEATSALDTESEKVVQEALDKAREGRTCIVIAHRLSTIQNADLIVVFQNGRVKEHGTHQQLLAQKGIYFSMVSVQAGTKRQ
UniProt P11509, sequence (whole entry, looked up): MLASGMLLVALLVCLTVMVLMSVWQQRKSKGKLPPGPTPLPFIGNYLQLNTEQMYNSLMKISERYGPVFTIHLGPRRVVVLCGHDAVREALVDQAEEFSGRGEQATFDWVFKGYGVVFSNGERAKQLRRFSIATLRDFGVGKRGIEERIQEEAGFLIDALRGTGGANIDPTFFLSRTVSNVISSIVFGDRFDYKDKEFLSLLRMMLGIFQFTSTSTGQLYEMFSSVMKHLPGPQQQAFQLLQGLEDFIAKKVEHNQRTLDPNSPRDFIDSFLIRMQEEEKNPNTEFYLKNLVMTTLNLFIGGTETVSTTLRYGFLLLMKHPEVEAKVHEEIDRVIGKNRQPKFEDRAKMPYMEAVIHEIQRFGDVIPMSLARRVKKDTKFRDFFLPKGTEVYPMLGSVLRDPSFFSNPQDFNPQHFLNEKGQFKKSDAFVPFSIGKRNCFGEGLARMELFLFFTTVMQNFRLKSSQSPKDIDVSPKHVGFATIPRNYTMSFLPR

SMILES	target	test	system	setting	how to read	quantity	result
CC(=O)CC(c1ccccc1)c1c(O)c2cccc(O)c2oc1=O (stereo not shown)	UGT1A9 (Homo sapiens, UniProt O60656)	substrate	–	pH 7.4, 37 °C	–	Km	369 µM
C1CO1	glutathione S-transferase, mouse	substrate	B6C3F1 mice, liver cytosol	–	–	Km	≥ 9000 µM
C#CCOc1ccccc1-c1ccccc1	Cytochrome P450 2A6 (CYP2A6, Homo sapiens, UniProt P11509)	binding, absorbance	–	pH 7.4	–	Kd	15 µM
Clc1cc(Cl)c(-c2cc(Cl)c(Cl)cc2Cl)cc1Cl	PXR (polar bear)	reporter gene, agonist, luciferase	COS-7	24 h	relative to: DMSO	fold induction	3 ± 0.2 fold
C#CCOc1ccc2c(C(F)(F)F)cc(=O)oc2c1	human CYP3A4	enzyme inactivation, inactivator	reconstituted system	added: BFC O-debenzylation substrate	–	KI	14 µM
CC(C)[C@@H]1NC(=O)c2csc(n2)[C@H](C(C)C)NC(=O)c2csc(n2)[C@H](C(C)C)NC(=O)c2csc(n2)[C@H](C(C)C)NC(=O)c2csc1n2	ABCB1 (Homo sapiens, UniProt P08183)	efflux transport, inhibitor, flow cytometry	HeLa, BacMam P-gp transduced	10 µM, 45 min, added: Bodipy-FL-prazosin	relative to: 1 µM tariquidar	inhibition	79%
Clc1ccc(Cl)c(-c2cc(Cl)c(Cl)cc2Cl)c1	PXR (polar bear)	reporter gene, agonist, luciferase	COS-7	24 h	relative to: DMSO	fold induction	1.8 ± 0.4 fold
COc1cc2nc(N3CCN(C(=O)c4ccco4)CC3)nc(N)c2cc1OC	ABCG2 (Homo sapiens, UniProt Q9UNQ0)	–	MDCKII-BCRP	5 µM, 20 min, pH 7.4	relative to: MDCKII-mock	intracellular accumulation decrease	69%
CC(C)(O)c1ccccc1CC[C@@H](SCC1(CC(=O)O)CC1)c1cccc(/C=C/c2ccc3ccc(Cl)cc3n2)c1	CYP2C9	inhibitor	human liver microsomes	2 µM, pH 7.4, added: diclofenac	–	inhibition	68.8%
Clc1ccc(-c2ccc(Cl)c(Cl)c2Cl)cc1Cl	Aryl hydrocarbon receptor (AHR, Delphinapterus leucas, UniProt Q95LD9)	binding, competitor	–	in vitro expressed receptor, added: [3H]TCDD	–	Ki	0.567 µM
Oc1cc(O)cc(/C=C/c2ccc(O)c(O)c2)c1	UGT1A9 human recombinant	substrate, refers to: 3-glucuronide	–	pH 7.4	–	Km	32.8 ± 2.4 µM
CC(=O)CC(c1ccccc1)c1c(O)c2cc(O)ccc2oc1=O (stereo not shown)	CYP2C9	enzyme activity, inhibitor	human, liver microsomes	–	–	Ki	167 µM
Clc1ccc(-c2cc(Cl)c(Cl)c(Cl)c2Cl)c(Cl)c1Cl	PXR (polar bear)	reporter gene, agonist, luciferase	COS-7	24 h	relative to: DMSO	fold induction	1.5 ± 0.3 fold
CC[C@H](C)[C@@H]1NC(=O)[C@H](CCC(=O)O)NC(=O)[C@@H]2CSSC[C@H](NC(=O)[C@H](Cc3ccc(O)cc3)NC(=O)[C@H](CO)NC(=O)[C@@H](NC(=O)[C@H](C)N)[C@@H](C)O)C(=O)N[C@@H](CCCNC(=N)N)C(=O)N[C@@H]([C@@H](C)O)C(=O)NCC(=O)N[C@@H](CCCNC(=N)N)C(=O)N[C@@H](CSSC[C@@H](C(=O)N[C@@H](CO)C(=O)N[C@@H](CCCNC(=N)N)C(=O)O)NC(=O)[C@H](CC(C)C)NC(=O)[C@H](CCCNC(=N)N)NC(=O)[C@H](Cc3ccc(O)cc3)NC(=O)[C@H](CC(C)C)NC(=O)[C@H](CCCNC(=N)N)NC(=O)CNC(=O)[C@H](CO)NC1=O)C(=O)N[C@@H](C)C(=O)N[C@@H]([C@@H](C)O)C(=O)N[C@@H](CCCNC(=N)N)C(=O)N[C@@H](CCC(=O)O)C(=O)N[C@@H](CO)C(=O)N[C@@H](CC(C)C)C(=O)N[C@@H](CO)C(=O)NCC(=O)N[C@@H](C(C)C)C(=O)N2	trypsin	proteolytic degradation, substrate	–	80 µM, pH 8.2, room temperature	–	time to full digestion	> 2 min
C#CCOc1ccc(-c2ccccc2)cc1	Cytochrome P450 2A13 (Homo sapiens, UniProt Q16696)	binding, absorbance	–	pH 7.4	–	Kd	0.48 µM
Brc1c(Br)c(Br)c(Oc2c(Br)c(Br)c(Br)c(Br)c2Br)c(Br)c1Br	NR1I2 (Homo sapiens, UniProt O75469)	reporter gene, agonist, luciferase	COS-7	24 h	relative to: DMSO	fold induction	2.5 ± 0.2 fold
